Measured values pooled from the literature.
Numbered parts are unrelated; each lists some results of a single study. Values joined by “and” are separate records of one study, mostly repeats; a detail may differ.

Series 1
SMILES: Cc1ncsc1-c1ccc(C(CO)NC(=O)C2CC(O)CN2C(=O)C(C(C)C)n2cc(-c3ccc(COc4c(-c5c(C)c(F)cc6[nH]ncc56)c(C5CC5)cc5c(N6CC7CC6CN7)nc(OC6CCOCC6)nc45)cc3)nn2)cc1 (stereo not drawn)
Method: qRT-PCR
Host: mouse, PK-59 xenograft
Medium: tumour
Setting: unit not given
Quantity: mRNA level
item: SPRY4; intravenous, 30 mg/kg, 48 h; reference: vehicle, same time point: 0.000297 and 0.000532
item: FOSL1; intravenous, 30 mg/kg, 144 h; reference: vehicle, same time point: 0.00864 and 0.011
item: DUSP6; 30 mg/kg, 24 h; reference: vehicle: 0.035 and 0.04 and 0.0404 and 0.031 and 0.0354 and 0.0308
item: DUSP6; 10 mg/kg, 48 h; reference: vehicle: 0.139 and 0.122 and 0.125
item: FOSL1; 30 mg/kg, 144 h; reference: vehicle: 0.247 and 0.194
item: DUSP6; intravenous, 10 mg/kg, 48 h; reference: vehicle, same time point: 0.0339 and 0.0387 and 0.0348
item: ETV4; 10 mg/kg, 144 h; reference: vehicle: 0.329 and 0.26 and 0.341

Series 2
Structure (SMILES): Cc1ccc(O)c(C)c1-c1cnc2[nH]c(-c3cnc(N4CCC(CN5CCN(c6ccc7c(c6)C(=O)N(C6CCC(=O)NC6=O)C7=O)CC5)CC4)nc3)cc2c1C#N (stereo not drawn)
Cell line: HCC1569
Method: in-cell western
Item: CDK1 phospho-Thr14
Quantity: pCDK1 (Thr14) level
4.12 nM: 17.8% and 22.8%
333.33 nM: 95.4% and 98%
0.457 nM: 16.6% and 10.6%
1000 nM: 108% and 110%
1.37 nM: 13.9% and 20.7%

Mixed results
CC(C)NC(=O)N1CCC(NC2=Nc3cc(F)ccc3N(CC(F)F)c3ccc(Cl)cc32)C1 (stereo in doubt)
viability (sample J colorectal tumour organoid; 0.1 µM; reference: DMSO): 103%

Cc1nc(C)c(C=[N+]([O-])C(C)(C)C)nc1C
TH-positive neuron count (stereological counting; MPTP mouse model, substantia nigra; 90 mg/kg): 7440 and 7260 and 8740 and 8090

CN(C)CC#Cc1ccc(OCCCc2sc(N3CCc4cccc(C(=O)Nc5nc6ccccc6s5)c4C3)nc2C(=O)O)c(F)c1
IC50 (colorectal cancer organoid sample I; 4 days): 110 nM
